Results gathered from unrelated publications.
A part holds a random share of what one study measured. Substitutions count along the parent as printed.

Sample 1
Target: Interferon regulatory factor 7, full length, phosphomimetic (IRF7, Homo sapiens, UniProt Q92985, residues 1-503, S101K/S471D/S472D/S475D/S476D/S477D/S483D/S484D/S487D)
Chain of UniProt Q92985 (whole entry, unmodified, looked up): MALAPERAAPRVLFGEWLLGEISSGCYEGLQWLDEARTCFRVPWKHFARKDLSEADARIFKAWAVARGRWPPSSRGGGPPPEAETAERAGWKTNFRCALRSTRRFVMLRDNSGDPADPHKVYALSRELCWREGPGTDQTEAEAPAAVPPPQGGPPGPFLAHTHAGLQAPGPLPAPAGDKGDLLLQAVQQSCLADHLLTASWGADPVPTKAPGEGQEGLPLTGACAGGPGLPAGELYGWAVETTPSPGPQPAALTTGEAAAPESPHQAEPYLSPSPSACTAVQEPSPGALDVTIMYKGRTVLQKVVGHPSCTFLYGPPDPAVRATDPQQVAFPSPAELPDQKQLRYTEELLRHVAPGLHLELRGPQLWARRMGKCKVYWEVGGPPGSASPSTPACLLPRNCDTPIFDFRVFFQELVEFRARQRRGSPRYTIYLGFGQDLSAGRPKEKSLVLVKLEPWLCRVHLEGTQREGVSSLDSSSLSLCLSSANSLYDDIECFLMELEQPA
Technique: protein-binding microarray
Molecule type: double-stranded DNA, one strand shown
Medium: in vitro
Concentration: 250 nM
Notes: 60-bp whole probe
Together with: salmon DNA 0.4 mg/ml
Reference: random background probes
Direction: higher = stronger binding
Measurement: log fluorescence
All sequences stand within: GCCTAGCAC … GTCTTGATTCGCTTGACGCTGCTG
GACGGTATCGACTTTCGTGACGTGCTA: 1.09 z-score
TGCAACATCCCAATGGCCCTGTGCTAG: -0.233 z-score
GACGATATAGGGTATCGAGACGTGCTA: -0.146 z-score
GACGAACTGGGTTTTCGAGACGTGCTA: -0.0281 z-score
GACGGTATCGGGTATCGGGCCGTGCTA: -0.0987 z-score
GACGGTATCGGAATCGGGACGTGCTAG: 1.08 z-score
TCATTTCCCAGAACTGGAACTGTGCTA: 3.14 z-score
TTAGGTTTCTTTATCCTTTAGTGCTAG: 2.79 z-score
GACGGACTCGGGTTTCGGGACGTGCTA: 4.07 z-score
ACCAAAATCAAGTCTGGGCTAGTGCTA: -0.496 z-score
GACAGTATCGGGTTTCGGGACGTGCTA: 3.14 z-score
GACGGTTTCATTATCCTGACGTGCTAG: 4.47 z-score
TGCTTTGGACCCAGGGCTAAGTGCTAG: 0.998 z-score
TTAGAACTGGGGAATCGATTAGTGCTA: 0.0899 z-score
TTAGGTCTCGGTATCTGTTAGTGCTAG: 2.69 z-score
GACGAACTGGGGTTTCGATACGTGCTA: 4.21 z-score
GACGATTACAGTTCCGAGACGTGCTAG: 0.195 z-score
GACGAACTGGGGACTGGATACGTGCTA: -0.379 z-score
TTAGGTATCCTTAGCCTTTAGTGCTAG: -0.151 z-score
GGAGGGGGGCGGGGCGGTGGGTGCTAG: 4.86 z-score
TTAGGACTGGTCTATCGGTTAGTGCTA: -0.533 z-score
GACGGTATCGGGACTGGGGCCGTGCTA: -0.588 z-score
TTAGGTTTCCCTTCCCTTTAGTGCTAG: 3.22 z-score

Sample 2
Target: OGT, full length, His-tagged (human)
Technique: phage display, sequencing
Medium: in vitro
Concentration: 1 µg OGT
Notes: single substitutions, 15-mer displayed peptide, unchanged parent 16.7
Reference: input library
Direction: higher = stronger binding
Measurement: fold enrichment
Starting sequence: peptide; NSEYMPQYQIIFAHQ
NSEYMPQYQIIFAVQ [H14V]: 6.94 fold
NSEYMPQYQIIFVHQ [A13V]: 16.9 fold
NSEYMPQYQIDFAHQ [I11D]: 7.62 fold
NSEYMPTYQIIFAHQ [Q7T]: 2.13 fold
DSEYMPQYQIIFAHQ [N1D]: 17.2 fold
NSEYMPQYPIIFAHQ [Q9P]: 6.28 fold
NSEYMPNYQIIFAHQ [Q7N]: 2.42 fold
NSEYMPQYQIIFAGQ [H14G]: 21.9 fold

Sample 3
Target: Histone acetyltransferase KAT6A, winged helix 1, GST fusion (KAT6A, Homo sapiens, UniProt Q92794, residues 1-85)
Technique: protein binding microarray
Molecule type: double-stranded DNA, one strand shown
Medium: in vitro
Concentration: not given
Notes: 8-mer, flanks averaged, mean of 2 arrays, mostly near background
Reference: not given
Direction: higher = stronger binding
Measurement: E-score
Construct (chain): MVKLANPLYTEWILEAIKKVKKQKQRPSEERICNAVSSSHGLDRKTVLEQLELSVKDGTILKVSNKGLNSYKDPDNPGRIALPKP
GAGCTCAC: 0.0415
CCCGCTGA: 0.256
CCGAAATC: 0.0672
GCATAGAA: -0.124
CCCGTGCC: 0.305
AGAGATTG: -0.0496
AGGTGAGC: -0.0487
CAACGCCC: 0.158
AAGGGTTC: -0.118
ACAAACAT: -0.114
AGATTGTC: -0.0579
CGTTAATA: 0.103
ATACAAAA: -0.164
TATCAGGA: -0.192
CACCAGGG: -0.169
AAGGCTTG: -0.204
AGACGCGC: 0.388
CCACCGGC: 0.334
AGCCGAGC: 0.186
ACTGCAGG: -0.179
CATGATTA: -0.0277
TCATTGGA: -0.144
AGCGGTAG: 0.129
AGGCACGC: 0.121
CTGAGTAA: -0.125

Sample 4
Target: RNA binding protein fox-1 homolog 2, RRM domain, GST-SBP tag (RBFOX2, Homo sapiens, UniProt O43251-10, residues 100-194)
Technique: RNA Bind-n-Seq
Molecule type: RNA
Medium: in vitro
Concentration: 365 nM
Notes: natural RNA segment, single round, ends assumed
Reference: no-protein control
Direction: higher = stronger binding
Measurement: RBNS enrichment (R)
All sequences stand within: GGGAGUUCUACAGUCCGACGAUC … UGGAAUUCUCGGGUGCCAA
Residues (chain): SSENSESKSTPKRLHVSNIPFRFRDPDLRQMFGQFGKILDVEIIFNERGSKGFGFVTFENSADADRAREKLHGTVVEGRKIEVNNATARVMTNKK
UCCCCUGGGAGCUUCUUAGAAAUGCAGACCUGUGGGCUCUACCACAGGCCUCUGGAAUCAGAAUCUUCAGGGUGGGGCCCAGCAGUCUGUGUUUUAACAGGUUCUCCCGG: 0.22
AGCGAGACCCCACCUGAGACAGGCAGUAGGAGCCUGUGCUGACCUUGGGGAAUCUGAGCUUUUCCAAGGGUAAGGGGCCCAGGGUAUGCAGGCCUUCAGUGACAUCAGGU: 0.944
UUUGUCUUGGAACCACCAGUCUAGUCCGUCCUGGCACAGAAGAGGAGUCAAGUAAUGGAGGUCCCAGCCCUGGGGGUUUAAGCUCUGCCCCUUCCCCAUGAACCCUGCCC: 0.478
GCAGCCAUUCCUUGCUUCAGUUCCCUUCCACCACCCAGGGCUGGCUUUCCUAUAAGCCACCUCCAGGGUCCAGGGGCUUUCUCUCUCUCUCCGAAGCCCCUGGACCUGUU: 0.579
GUUCUCUCCGCAUUCUUUAGGAGGAUUCAGGGGCGGCCUAGUGGAAGACAGUGGGCUCCAUGCCUCUUUCCCCUGGGGUUUGCUUCAGGGGCUCCUCCCCGAGGGCUUGC: 0.428
AGGUUUAAAGUAUUUAAAAUAUAGUUACCUAAUUGUAAAUAGGCUGUUAACCAAAAGAGCUUCCCCUCCCCCAGUUUUCUUUUAUGACCACUGAUGACUGCGGCUGUCUC: 0.368
ACUAAUUUUGAAAGUCAUGUAACUUCUUUUGAUAUCUGGGCAAAAGUAACCAUAUGCUAUAAGCAUUUGAAUAUGUUUAAUUUUAUCAUAAUAGCAUCUGUAAAAGUACA: 0.592
AUUACCUUCCUAGUGGGAACUUUUUCUACUUUACCUACAAGUUCUAUAUAUGUAGAAAUGAAUAAAUAUAUAUUUAAGUACAGUUUUCAUGAGGAAGUUUUAAAAGACCA: 0.481
CAAGGUGCUGCUGCUUGCCCAAAUGUUUUCCCAUGGGAUAUGUACCGGAAGGUUUAUCACCACCCUGGGAAACAUAAUGCUGCCCCUUGGGCCCAGAAAGGGGUUUCCAG: 1.41
CUCAAAAUAUCAUGUUAAAUUAGAAUUUAUCUUUACCAAAAACCAUGUUGCUUUCAGAGAGGUCAACAUUAAAAUACUGAGACAGGACAGAAUGUGUUCUUUGUCCUUUU: 0.56
UUUCCCCUUGAUGGAAAUUGACCAUACAAUUUCAUCCUCCUUCAGGGGAUCAAAAGGACGGAGUGGGGGGACAGAGACUCAGAUGAGGACAGAGUGGUUUCCAAUGUGUU: 0.702
AGAGCAUACUUAUUGGGCUGUGAAGGCAUACGGAUGUACAUGUUUUAGAGCUUAUCUCAGAUUUAAAUAGCCAAAGGAAGACCUCAUUGCCUUCCAGGUGAAGGUGCAAA: 0.674

Sample 5
Target: Ras GTPase-activating protein-binding protein 1, full length (G3BP1, Homo sapiens, UniProt Q13283)
Chain of UniProt Q13283 (whole entry, looked up): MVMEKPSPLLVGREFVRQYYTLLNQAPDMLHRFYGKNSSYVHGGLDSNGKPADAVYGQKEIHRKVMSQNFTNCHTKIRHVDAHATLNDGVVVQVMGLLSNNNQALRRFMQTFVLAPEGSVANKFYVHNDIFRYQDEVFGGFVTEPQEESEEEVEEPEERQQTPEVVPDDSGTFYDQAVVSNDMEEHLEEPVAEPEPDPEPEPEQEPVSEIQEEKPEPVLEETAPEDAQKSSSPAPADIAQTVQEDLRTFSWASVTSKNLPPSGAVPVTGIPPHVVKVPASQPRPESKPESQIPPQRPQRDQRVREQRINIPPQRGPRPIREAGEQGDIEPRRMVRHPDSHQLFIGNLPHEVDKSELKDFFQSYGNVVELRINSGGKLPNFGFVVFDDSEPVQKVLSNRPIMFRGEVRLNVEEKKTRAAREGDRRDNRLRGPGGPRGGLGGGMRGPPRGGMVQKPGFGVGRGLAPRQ
Technique: RNA Bind-n-Seq
Molecule type: RNA
Medium: in vitro
Concentration: 200 nM
Notes: whole 134-nt RNA, ends assumed
Together with: 150 mM KCl
Reference: input library
Direction: higher = stronger binding
Measurement: log2 enrichment
All sequences stand within: GGGAGUUCUACAGUCCGACGAUC … UGGAAUUCUCGGGUGUCAAGG
ACCAUGCAGGUGGGCAUCUUUGGGAAGUGGGGCAAGGGGGGGGUAGGGAGGGGGGUAACACUUUGGGAACAGGUGGUCCCAGGUCGUUUC: 1.15
CUGUGCUACACAUCGUAUGUACCGAAUCGGGCCCCCCCGGGCCCCCCCGGGGCCCCCCCGGGAAAGUAUUAUGUUACGCCGUUCGGAUCU: -1.34
UGGCCCUGGUGGCAUGCGGGGAGGAAGAGGUGGCCUCAUGGAUCGUGGUGGUCCCGGUGGAAUGUUCAGAGGCGGCCGUGGUGGAGACAG: -0.0251
GCAGGAAGUAAAAACAAAUGGAAAUGCUUCGGAUAGUGGCAGGGGUGGGGGUUGCUAAGGAAAGGCUGGGAUGGGAGUGGGUAAAGAGUU: 0.859
AGUCCUGUGCUACACAUCGUAUGUACCGAAUCGGGUUUGGGUUUUUGGGUUUUUGGGAAAGUAUUAUGUUACGCCGUUCGGAUCUGCACU: -0.21
UGUCCUGCAGGGUCGGACCGAUACCUGGAGAGCCGCGAUGCCUCUCGACUGAGUGGCCGGGACCCCUCCUCAUGGACAGUCGAGGAUGUG: -1.94
CUCAAGUCCUGUGCUACACAUCGUAUGUACCGAAUCGGUGGAAAAAAAGGAGGAAAGUAUUAUGUUACGCCGUUCGGAUCUGCACUUCCA: -0.37
UGGCCCUGGUGGUAUGCGGGGAGGAAGAGGUGGCCUCAUGGAUCGUGGUGGUCCCGGUGGAAUGUUCAGAGGUGGCCGUGGUGGAGACAG: 0.124
CGCUAAAGAGGAGCACGGUGGACUGAUGUGAGCUUCUCUUCCUGCCCCUUCCUCCCUGAUGUCCACUCCCUUCACCUUCCUCACGCCCGU: 0.945
UCAAGUCCUGUGCUACACAUCGUAUGUACCGAAUCGGUUUGGUUUUUGGUUUGGAAAGUAUUAUGUUACGCCGUUCGGAUCUGCACUUCC: -0.932
UCAAGUCCUGUGCUACACAUCGUAUGUACCGAAUCGGGGUUGGUUGGGGUUGGGAAAGUAUUAUGUUACGCCGUUCGGAUCUGCACUUCC: 0.482
CUGUGCUACACAUCGUAUGUACCGAAUCGGAAAAAAAGGGAAAAAAAGGGAAAAAAAGGGGAAAGUAUUAUGUUACGCCGUUCGGAUCUG: -0.887
CCUGUGCUACACAUCGUAUGUACCGAAUCGGUUUUUUGGGGUUUUUUGGGGUUUUUUGGGGAAAGUAUUAUGUUACGCCGUUCGGAUCUG: -0.577
CUCAAGUCCUGUGCUACACAUCGUAUGUACCGAAUCGGAAAAAGGUGGUUUGGAAAGUAUUAUGUUACGCCGUUCGGAUCUGCACUUCCA: -0.773
